# Experimental data pooled from the literature.
# Parts stem from different laboratories: compare values within a part only.

# Series 1 — method: protein-binding microarray; form: double-stranded DNA, one strand shown; medium: in vitro; tested at: 2540 nM top; notes: 60-bp whole probe; together with: salmon DNA 0.4 mg/ml; baseline: random background probes; reading: higher = stronger binding; shared flanks, not repeated: GCCTAGCAC … GTCTTGATTCGCTTGACGCTGCTG
# Target: Interferon regulatory factor 3, full length, phosphomimetic (IRF3, Homo sapiens, UniProt Q14653, residues 1-427, S386D/S396D/S398D/S402D/T404D/S405D)
# Target sequence (chain): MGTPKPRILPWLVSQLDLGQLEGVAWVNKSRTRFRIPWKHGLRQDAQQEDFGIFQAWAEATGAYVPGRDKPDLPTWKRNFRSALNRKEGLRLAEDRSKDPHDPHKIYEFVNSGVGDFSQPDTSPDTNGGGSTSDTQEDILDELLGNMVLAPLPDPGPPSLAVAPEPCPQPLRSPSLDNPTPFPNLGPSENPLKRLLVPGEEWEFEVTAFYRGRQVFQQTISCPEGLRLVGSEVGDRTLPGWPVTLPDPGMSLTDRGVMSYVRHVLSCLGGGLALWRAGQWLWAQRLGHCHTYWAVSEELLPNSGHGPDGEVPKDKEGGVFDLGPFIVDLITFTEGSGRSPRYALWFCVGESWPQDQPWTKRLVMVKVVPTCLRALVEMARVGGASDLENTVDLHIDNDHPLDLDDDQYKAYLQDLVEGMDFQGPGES
Sequence,fitted relative affinity [z-score]
GACGGTTTCGGTCTTGGGACGTGCTAG,8.26
ATAGATATCGGGTTTCGATTAGTGCTA,2.36
GACGGACTGGACCATCGGGACGTGCTA,-0.581
CGTATCTTCATTGTCATGTAGTGCTAG,1.3
TTAGGTTTCGGTTCCGCTTAGTGCTAG,10.7
GACGATCTCATTCTCGAGACGTGCTAG,1.73
TTAGGACTGCTTTTCCTCTAGTGCTAG,0.2
TCACTTTTCTTTTCTTTACTGTGCTAG,5.65
TCACCTTTCTGCCTCAGACTGTGCTAG,4.48
TTAGGTATCCTTCTCCCTTAGTGCTAG,7.18

# Series 2 — method: aptamer microarray, sandwich; form: DNA with 2'F-ANA; medium: in vitro; tested at: 200 nM; together with: Cy3 exosite-II aptamer, 400 nM; reading: higher = stronger binding; sequence: GGTTGGTGTGGTTGG
# Target: Prothrombin, mature alpha-thrombin (F2, Homo sapiens, UniProt P00734)
# Notes: whole 15-mer aptamer, many near background
Modification,mean fluorescence intensity [a.u.]
2'F-ANA at 1 2 3 4 5 6 7 8 9 11 13 14 15,54.2
2'F-ANA at 1 4 9 11 12 13 14,54.2
2'F-ANA at 2 5 9 10 13 15,44.5
2'F-ANA at 2 4 5 7 10 11 12 15,61.8
2'F-ANA at 2 3 4 7 8 10 11 13 14 15,153
2'F-ANA at 1 2 6 10 13 14 15,49.9
2'F-ANA at 1 2 4 8 9 11 14 15,51.7
2'F-ANA at 1 2 6 7 8 10 11 12 14 15,53.2
2'F-ANA at 2 8 10 11 12 13 14 15,83.9
2'F-ANA at 1 2 4 5 6 8 9 12 14,47.2
2'F-ANA at 2 8 11 13 14,141
2'F-ANA at 1 2 3 5 8 9 10 12 14 15,49.7

# Series 3 — method: RNA Bind-n-Seq; form: RNA; medium: in vitro; tested at: 365 nM; baseline: no-protein control; reading: higher = stronger binding
# Target: RNA binding protein fox-1 homolog 2, RRM domain, GST-SBP tag (RBFOX2, Homo sapiens, UniProt O43251-10, residues 100-194)
# Notes: natural RNA segment, single round, ends assumed
# Shared flanks, not repeated: GGGAGUUCUACAGUCCGACGAUC … UGGAAUUCUCGGGUGCCAA
# Target sequence (chain): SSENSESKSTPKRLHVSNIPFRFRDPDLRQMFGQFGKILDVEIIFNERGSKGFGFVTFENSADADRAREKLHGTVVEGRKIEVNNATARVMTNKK
Sequence,RBNS enrichment (R)
CCUCAGGCUGGAGCCUGGGUGUUGGAAGGGAGAGACUGUCACCCAGUUGUCAUGUCUUUUGGUUGUGAGCCUAUGCACCUUACCUUUAAUGGUUGAACCAUCUUUUCAGC,0.514
AAAUUGGAAGGGUUUUGAGAUAUCCUAGAGAAAGAGCAAGCACUUUCUGAAUCAGUGGGGAAAUAUCAAUAUUUGAUCAAAUUAACACUACCUCCUUCCCAGUGUUGGUG,0.517
GUUGUUUCUUUACUAGCAGAAAUCAGUCUGCAGGGAGGGGUAGUGCGUGUAUCUCACUGUUUUCCGUAUUGGGAACAGAUGGUAUAGAUUUGCCAAGGCCUUUAUUUUAA,0.554
AGGAUGCAGCCCUGGGAUCCAGCACCCAUGGAAGCUUCUGCUGGGAUGGUGUCACCUAUGGGUUUUGAACCAGUGUGGUAUGGUCCUUGGGAGCUCUGCUCUGAGCUUGC,1.58
UCAUCAUUGAAACUGCUUUUCGUAAUUGCGGGUAGGUUCCUGUAGGUGAGACAUAUUCUCCAUAAAGCUACUGUAGUAGAAUUCAUUCUGGGCAAACACUGAAAAAAGUG,0.383
CUUCCUCCAGAAGCCUCCUUACAUUAAAAAGCCUUACAGUUAUCCUGCAAGGGACAGGAAGGUCUGAUUUGCAGGAUUUUUAGAGCAUUAAAAUAACUAUCAGGCAGAAG,0.346
AAUCAUAAGGAUUUUUAUUGCCGCUCCAUUCUUACUACUAUUCAUGAUUCAAACAUCUACCCCUGUUCUGAAUCAGGAUGUUGACACUUCUUGGUUAUUUUCAGAUGAAC,0.384
AAGACCAGGCUGACCUUGAACUUACAGAGAUCCACCUCCCUGCCUCCCGAGUGCUGGAGCUAAUGGGGAUCACCACCACAGCCCAGCUCAAGUUCUUUCUCUUGGUUAGU,0.217

# Other studies, line by line
Molecule,target,test,system,setting,how to read,quantity,value
"PhoQ, residues 284 288 289 292 302 303 ALVSVA","PhoP, residues 12 14 15 18 19 STWGI (Escherichia coli, UniProt P23836)","Sort-seq, measured: YFP reporter",E. coli,"PhoQ-PhoP variant library, together with: 10 µM Mg2+","baseline: high Mg2+ state, higher = stronger signaling",fold induction,1.83

# For quick reference, copied from above (series 2):
Modification,mean fluorescence intensity [a.u.]
2'F-ANA at 2 5 9 10 13 15,44.5
2'F-ANA at 2 4 5 7 10 11 12 15,61.8
2'F-ANA at 2 3 4 7 8 10 11 13 14 15,153
2'F-ANA at 1 2 6 10 13 14 15,49.9
2'F-ANA at 1 2 4 8 9 11 14 15,51.7
